Experimental data of several laboratories.
Protocols differ between the studies behind these lines. Numbers after ± are the reported error.

For `CC(C)C[C@@H](NC(=O)[C@H](NC(=O)[C@H]1CCCN1)[C@H](C)O)C(=O)N[C@H](Cc1c[nH]cn1)C(=O)N[C@@H](C(=O)N[C@H](Cc1c[nH]cn1)C(=O)N[C@H](CC(N)=O)C(=O)N[C@H](CCCNC(=N)N)C(=O)N[C@H](CCCNC(=N)N)C(=O)N[C@H](CCCNC(=N)N)C(=O)N[C@H](CCCNC(=N)N)C(=O)N[C@H](CCCNC(=N)N)C(N)=O)[C@H](C)O`, the half-life was 3720 min (beagle dog, plasma; oral, 20 mg/kg, single dose).
`CC[C@H](C)[C@@H]1NC(=O)[C@H](Cc2ccc(O)cc2)NC(=O)[C@@H](N)CSSC[C@@H](C(=O)N2CCC[C@H]2C(=O)N[C@@H](CC(C)C)C(=O)NCC(N)=O)NC(=O)[C@H](CC(N)=O)NC(=O)[C@H](CCC(=O)O)NC1=O`: “time to peak degradant” 72 h (capillary electrophoresis; 50 mM phosphate buffer; pH 2.0, 70 °C, 0.1 mg/mL oxytocin).
`COc1cc(NC(C)=O)c2c(c1O)-c1c(OC)c(OC)cc3c1C(C2)N(C)CC3` (stereo not drawn) has a remaining compound of 101 ± 4% (rat brain homogenate; 5 µg/mL, time not given, three freeze-thaw cycles).
Under “terminal elimination rate constant”, `CCc1cc(Nc2nc(-c3ccc(-n4cnc(C)c4)c(F)c3)cs2)c(C)cc1C` is recorded as 2.97e-05 s⁻¹ (human, both sexes, plasma; oral, 400 mg, day 1, multiple dose, geometric mean).
`CC(C)[C@H](NC(=O)[C@@H]1CCCN1C(=O)[C@H](CCCNC(=N)N)NC(=O)[C@H](CS)NC(=O)[C@H](Cc1c[nH]c2ccccc12)NC(=O)[C@H](CCCNC(=N)N)NC(=O)[C@@H](Cc1ccccc1)NC(=O)[C@H](Cc1c[nH]cn1)NC(=O)[C@H](CCC(=O)O)NC(=O)[C@H](CS)NC(=O)[C@H](CS)NC(=O)CNC(=O)[C@@H]1CC(=O)N[C@@H](CCCNC(=N)N)C(=O)NCC(=O)N[C@@H](CC(=O)O)C(=O)N[C@H](Cc2ccc(O)cc2)C(=O)N1)C(N)=O` [technetium-99m labelled] gave a tissue uptake of 11.5 ± 1.01 %ID/g (C57 mouse, female, B16/F1 melanoma, tumor; intravenous, 0.037 MBq, 2 h).
For `Cc1ccc(C(C)C)cc1.O=C(N=P(c1ccccc1)(c1ccccc1)c1ccccc1)c1ccccn1.[Cl-].[Cl-].[Ru+2]`, the ruthenium level was less than 5 µg/g (NOD scid mice, kidney; dose not given, end of efficacy study).
Under “urinary excretion 0-24 h”, `COc1cc(C)c(Cc2ccc(O)cc2)cc1[C@@H]1S[C@H](CO)[C@@H](O)[C@H](O)[C@H]1O` is recorded as 11.6 ± 2.49% (Japanese T2DM patients, urine; 5 mg luseogliflozin, day 7, once daily; reference: dose).
`NC[C@@H](C(=O)Nc1ccc(-c2cn[nH]c2)cc1)c1ccccc1` — result for “conjunctival redness score”: 0 (OECD 405 eye irritation; New Zealand White rabbit, eye; topical, 0.1%, 8 h (day 1), scale 0 to 3; direction not given).
The half-life of `C=C(C)C(=O)Nc1ccc(-c2c(-c3ccc(Oc4nccc(C)n4)cc3)c3c(N)ncnc3n2C)cc1` is reported as 36.6 min (beagle dog, plasma; intravenous).
With `O=C(NCCCN(CCCCN(CCCNC(=O)c1cccc(=O)n1[O-])C(=O)c1cccc(=O)n1[O-])C(=O)c1cccc(=O)n1[O-])c1cccc(=O)n1[O-].[89Zr+4]` the intact complex was 94.5 ± 4.1% (radio-TLC; PBS; 7 d, pH 7.4, 37 °C, with: Gd^3+ 10-fold excess).
`CC(=O)Nc1ncc(CN2CC[C@H](Oc3cccc([18F])n3)C[C@@H]2C)s1` — result for “plasma free fraction”: 5.36 ± 0.15% (ultrafiltration; rhesus monkey, plasma; pre-blocked condition).
With `CC(F)C(=O)NC[C@@H]1O[C@H](C(=O)N[C@@H](CCC(=O)NCCCC[C@@H]2NC(=O)[C@@H](Cc3ccc(O)cc3)NC(=O)[C@H](CC(=O)O)NC(=O)CNC(=O)[C@H](CCCNC(=N)N)NC2=O)C(=O)NCCCC[C@@H]2NC(=O)[C@@H](Cc3ccc(O)cc3)NC(=O)[C@H](CC(=O)O)NC(=O)CNC(=O)[C@H](CCCNC(=N)N)NC2=O)[C@H](O)[C@H](O)[C@H]1O` (stereo partly drawn) [fluorine-18 labelled] the kidney uptake was 2.7 ± 0.4 %ID/g (female athymic nude mouse, U-87 MG xenograft, kidney; dose not given, 1 h).
The metabolic rate of `Cc1cccc(C)c1OCC(N)c1ccccc1` (stereo not drawn) is reported as 0.21 ± 0.01 nmol/min/mg of protein (mouse liver S9; 88 µM, 30 min, 37 °C).
`NCCCC(=O)OCC(=O)c1cc(F)c(O)c(F)c1F.O=C(O)C(F)(F)F` has a quantum yield of 0.02 (photolysis, item: GABA appearance; aqueous HEPES buffer with LiClO4; pH 8.2).
The AUC(0-tau) of `CC(C)(O)c1ncc([S@](N)(=O)=NC(=O)Nc2c3c(cc4c2CCC4)CCC3)s1` is reported as 81900 ng·h/mL (healthy human; oral, 100 mg once daily, day 1, spray-dried dispersion, geometric mean).
`CCCCCCCCCCCCCCCC(=O)NCCOCCOCCOCCOCCOCCOCCOCCOCCC(=O)NCCCC[C@H](NC(=O)CNC(=O)[C@@H]1CSSC[C@H](N)C(=O)N[C@@H](Cc2ccc(O)cc2)C(=O)N[C@@H]([C@@H](C)CC)C(=O)N[C@@H](CCC(N)=O)C(=O)N[C@@H](CC(N)=O)C(=O)N1)C(=O)NCC(N)=O`: “CSF to plasma unbound ratio” 0.02 (rat; subcutaneous depot, 10 mg/kg).
`Oc1cccc(-c2cccc(O)n2)n1.[Cl-].[Cl-].[Ru+2].c1cnc2c(c1)ccc1cccnc12.c1cnc2c(c1)ccc1cccnc12` has a logD of 1.63 (shake flask; octanol/phosphate buffer; pH 7.40).
For `Oc1ccc2ccccc2c1/N=N/c1ccccc1`, the measured concentration was 5.01 µg/L (rat whole blood QC samples; 5.0 µg/L, 8 h, room temperature, short-term stability).
For `O=C([O-])CN1CCN(CC(=O)[O-])CCN(CC(=O)NC[C@H]2CC[C@H](C(=O)N[C@H](Cc3cnc4ccccc4c3)C(=O)NCCCC[C@H](NC(=O)N[C@@H](CCC(=O)O)C(=O)O)C(=O)O)CC2)CCN(CC(=O)[O-])CC1.[64Cu+2]`, the absorbed dose was 0.0448 mGy/MBq (PET/CT dosimetry OLINDA/EXM; healthy volunteers, spleen; up to 24 h post-injection).
`Cc1ccc(-c2ccc(-c3cc4sccc4o3)cn2)nc1`: “emission shift on zinc binding” 4010 cm⁻¹ (acetonitrile; concentration not given, with: Zn(ClO4)2, saturating; reference: zinc-free ligand).
With `O=c1nc(NO)ccn1[C@@H]1O[C@H](CO)[C@@H](O)[C@H]1O` the protein level was 0.6 fold (item: CYP2C8; normal rat, liver; oral, 80 mg/kg twice daily, 5 days; reference: untreated rats).
`COc1ccc(/C=C/c2ccc(-c3ccc(C)cn3)nc2)cc1`: “radiative decay rate constant” 0.12 ns⁻¹ (TCSPC; water, HEPES 100 mM; pH 7.4, zinc complex).
The AUC(0-tau) of `CC[C@H](C)[C@H](NC(=O)[C@H](CC(C)C)NC(=O)[C@H](Cc1c[nH]c2ccccc12)NC(=O)[C@H](C)NC(=O)[C@@H](NC(=O)[C@H](Cc1ccccc1)NC(=O)[C@H](CC(=O)O)NC(=O)[C@H](CCCNC(=N)N)NC(=O)[C@H](C)NC(=O)[C@H](C)NC(=O)[C@H](CC(C)C)NC(=O)[C@H](C)NC(=O)[C@H](CC(=O)O)NC(=O)[C@H](CC(C)C)NC(=O)[C@@H](NC(=O)[C@@H](NC(=O)[C@H](C)NC(=O)[C@H](CC(C)C)NC(=O)[C@H](CCC(=O)O)NC(=O)[C@H](CO)NC(=O)[C@H](CO)NC(=O)[C@H](Cc1ccccc1)NC(=O)[C@@H](NC(=O)CNC(=O)[C@H](CCC(=O)O)NC(=O)CNC(=O)[C@@H](N)Cc1cnc[nH]1)[C@@H](C)O)[C@@H](C)O)[C@@H](C)CC)[C@@H](C)CC)C(=O)N[C@@H](C)C(=O)N[C@H](C(=O)N[C@@H](CCCCN)C(=O)N[C@H](C(=O)N[C@H](C(=O)N[C@@H](CC(=O)O)C(=O)N[C@@H](CCCCN)C(=O)N[C@@H](CCCCN)C(=O)N[C@@H](CCCCN)C(=O)N[C@@H](CCCCN)C(=O)N[C@@H](CCCCN)C(=O)N[C@@H](CCCCN)C(N)=O)[C@@H](C)O)[C@@H](C)CC)[C@@H](C)O` is reported as 0.232 µM·h (healthy humans, plasma; subcutaneous, 10 mg once weekly, 6 doses, day 36, geometric mean).
`CCOC(=O)c1[nH]c(C)c(/C=C/c2c(I)c(C)c3n2[B-](F)(F)[N+]2=C(C)C(I)=C(C)C2=C3c2cc(OC)cc(OC)c2)c1C` has an emission maximum of 628 nm (dichloromethane).
`COC(=O)C(c1ccccc1Cl)N1CCC(SCC(=O)c2cccc(OC)c2)C(=CC(=O)O)C1` (mixture of isomers) — result for “deviation from nominal”: -4% (HPLC-MS/MS; feline citrate plasma; 100 ng/mL, 48 h, -20 °C, storage stability).
`CCCC1OC2CC3C4CCC5=CC(=O)C=CC5(C)C4C(O)CC3(C)C2(C(=O)COC(=O)CN(CC)CC)O1` (stereo not drawn): “time to complete hydrolysis” no more than 24 h (human plasma; 200 µg/mL, 37 °C).
`C#CCOc1ccc(/C=C2\SC(=O)N(CC(=O)NCc3ccccc3)C2=O)cc1` gave a correlation volume of 4720 cm³/mol (inverse Kirkwood-Buff integrals; binary solvent mixture; concentration not given, 298.15 K, mole fraction x1 0.65).
For `CC(C)[C@H](NC(=O)CNC(=O)[C@H](CCC(N)=O)NC(=O)[C@H](C)N)C(=O)O`, the half-life was 8.4 min (LC-MS/MS; human, plasma; intravenous, 20 mg/kg three times daily, day 2, first dose, geometric mean).
For `CC(C)c1cnc(-c2cc(Cl)ccc2F)cc1Nc1ccncc1C(=O)NC(CO)CO`, “patients with related SAE” read 0% (item: hypotension; human patients; oral, dose not given, grade 1).
The elimination half-life of `N=C(N)NCCC[C@@H]1NC(=O)[C@H](Cc2c[nH]c3ccccc23)NC(=O)[C@@H](CC2CCCCC2)NC(=O)[C@@H]2CCCN2C(=O)[C@@H](NC(=O)CCc2ccccc2)CCCNC1=O` is reported as 28.4 min (C57BL/6J mice, spinal cord; intravenous, 1 mg/kg).
The C0 of `CNC(=O)N[C@]1(C)CCC[C@@]2(C)C3CC[C@@]4(C)C[C@]3(CCC21)CC4=O` (single isomer, unassigned) is reported as 3320 ng/mL (male Sprague-Dawley rat, plasma; intravenous, 2 mg/kg).
For `CCCC(CCC(=O)O)NC(=O)c1ccc2c(c1)OCO2` (stereo not drawn), the Cmax ratio was 4.63 (male Sprague-Dawley rats, plasma; oral, 200 mg/kg of parent drug; reference: 200 over 20 mg/kg dose).
With `NCCC(=O)N1Cc2ccccc2-c2c(nnn2-c2nc3c(N)ncnc3n2C2OC(CO)C(O)C2O)-c2ccccc21` (mixture of isomers) the brightness was 0.27 M⁻¹ cm⁻¹ (methanol).
`Cn1c(=O)oc2ccc(-c3ccc(CC(C#N)NC(=O)C4CNCCCO4)c(F)c3)cc21` (stereo not drawn) — result for “subjects with TRAE”: 0% (item: macule; human; 60 mg single dose, fasted).
With `Cc1[nH]c(/C=C2\C(=O)Nc3ccc(F)cc32)c(C)c1NC(=O)CCN1CCN(C)CC1` the accuracy deviation was 1.96% (dog plasma; 40 ng/mL nominal, three freeze-thaw cycles at -20 °C).
`NCCCC(=O)OCC(=O)c1ccc(O)c(F)c1F.O=C(O)C(F)(F)F` gave a quantum yield of 0.22 (photolysis, item: rearranged acid appearance; unbuffered water).
`CN(C)c1ccc(-c2nc3ccc(OCCCCCN4CCN5CCN(CC4)CC(=O)[O][Al]([18F])[O]C(=O)C5)cc3s2)cc1` has a stomach uptake of 1 ± 0.18 % injected dose/organ (ICR mouse; intravenous, dose not given, 2 min).
`Cc1cc(O)cc(O)c1C(=O)c1c2c3c(c(O)cc(C)c3oc1=O)C(=O)c1c(O)cc(O)cc1-2` gave a PCE/NCE ratio of 0.81 ± 0.2 (mouse, bone marrow; intraperitoneal, 400 mg/kg, 30 h).
`Cc1ccc(OCC(=O)O)cc1` has a Tmax of 120 min (Sprague-Dawley rat, female, plasma; oral gavage, 100 mg/kg of parent drug).
`NCCCC(=O)OCC(=O)c1ccc(O)c(OC(F)(F)F)c1.O=C(O)C(F)(F)F` gave a quantum yield of 0.01 (photolysis, item: rearranged acid appearance; aqueous HEPES buffer with LiClO4; pH 8.2).
For `CC1=C(C=O)C(C)(C)CC=C1`, the blood-to-plasma ratio was 0.88 ± 0.07 (rat blood; 1000 nM, 0 min).
With `[11CH3]c1ccc2nc(C3CCC3)n(-c3ccc4[nH]ncc4c3)c2n1` the absorbed dose was 3.2 µSv/MBq (extrapolated from mouse biodistribution; standard human, osteogenic cells).

Repeated from above:
With `[11CH3]c1ccc2nc(C3CCC3)n(-c3ccc4[nH]ncc4c3)c2n1` the absorbed dose was 3.2 µSv/MBq (extrapolated from mouse biodistribution; standard human, osteogenic cells).
`CC(C)[C@H](NC(=O)[C@@H]1CCCN1C(=O)[C@H](CCCNC(=N)N)NC(=O)[C@H](CS)NC(=O)[C@H](Cc1c[nH]c2ccccc12)NC(=O)[C@H](CCCNC(=N)N)NC(=O)[C@@H](Cc1ccccc1)NC(=O)[C@H](Cc1c[nH]cn1)NC(=O)[C@H](CCC(=O)O)NC(=O)[C@H](CS)NC(=O)[C@H](CS)NC(=O)CNC(=O)[C@@H]1CC(=O)N[C@@H](CCCNC(=N)N)C(=O)NCC(=O)N[C@@H](CC(=O)O)C(=O)N[C@H](Cc2ccc(O)cc2)C(=O)N1)C(N)=O` [technetium-99m labelled] gave a tissue uptake of 11.5 ± 1.01 %ID/g (C57 mouse, female, B16/F1 melanoma, tumor; intravenous, 0.037 MBq, 2 h).
